Assay results gathered from unrelated publications.
Several values in a cell are separate wells, animals, samples, runs or records.

`Cn1ncc2cc(-c3cncc(Cl)c3N3CCC4(CCNC4=O)CC3)ccc21`: “log2 fold change” -1.47 (LS174T; gene expression, microarray, measured: CYP27B1 mRNA; concentration not given, 4 h; baseline: untreated cells).
The EC50 of `Cc1nc(NCCOCCNc2ncc(C(=O)NC3=NN(c4ccc(Cl)c(Cl)c4)CC3)c(C)n2)ncc1C(=O)NC1=NN(c2ccc(Cl)c(Cl)c2)CC1` is reported as 1600 nM (K562; cell growth or viability, ATP luminescence; 72 h).
The fold regulation of `CCN(CC)CC(=O)Nc1cccc(-n2cc(-c3ccc4ccc(-c5cn(-c6cccc(NC(=O)CN(CC)CC)c6)nn5)cc4c3)nn2)c1` is reported as -1.43 (RCC4; PCR angiogenesis array, measured: CXCL1; 5 x IC50, 4 h, normoxia; baseline: untreated).
Under “log2 fold change”, `CN1CCCNC(=O)c2cccc(c2)C(=O)NCCCN(C)CCCNc2cccc3c2C(=O)c2cccc(c2C3=O)NCCC1` is recorded as 0.842 (SAS; RNA-Seq, measured: SMIM19 mRNA; 1 µM, 6 h; baseline: untreated cells).
The colony count of `COc1ccccc1-c1ccncc1C(=O)Nc1nnc(OCc2ccc(Cl)cc2)s1` is reported as 14 and 15 and 13 and 16 (MDA-MB-436; 0.375 µM).
For `CC(C)c1ccc(N(C)c2ccc3c(c2)OCC[C@H]3CNc2cnccc2C(=O)O)cc1`, the EC50 was 33 nM (KYSE-150; apoptosis, measured: caspase-3/7; 72 h; baseline: panobinostat).
The colony count of `CO[C@@H]1[C@@H](OC(N)=O)[C@@H](O)[C@H](Oc2ccc3c(O)c(NC(=O)c4ccc(O)c(CC=C(C)C)c4)c(=O)oc3c2C)OC1(C)C` is reported as 0.1 (DLD-1 BRCA2-/-; 150 µM, replicate 2).
For `Cc1ncsc1-c1ccc(C(C)NC(=O)C2CC(O)CN2C(=O)C(NC(=O)CCCCCCCCCCN2CCCC(Nc3ncc(Cl)c(Nc4ccccc4S(=O)(=O)C(C)C)n3)C2)C(C)(C)C)cc1` (stereo not drawn), “log2 fold change” read -3.29 (22Rv1; RNA-seq, measured: LRFN2 mRNA; concentration not given; baseline: DMSO).
For `CNS(=O)(=O)Nc1nccc(Cc2c(C)c3ccc(Oc4ncccc4F)cc3oc2=O)c1F`, the IC50 was 32 nM (NCI-H1792; cell viability; 7 days).

Some of these lines once more:
The fold regulation of `CCN(CC)CC(=O)Nc1cccc(-n2cc(-c3ccc4ccc(-c5cn(-c6cccc(NC(=O)CN(CC)CC)c6)nn5)cc4c3)nn2)c1` is reported as -1.43 (RCC4; PCR angiogenesis array, measured: CXCL1; 5 x IC50, 4 h, normoxia; baseline: untreated).
